Published values gathered from unrelated publications.
Every numbered part comes from another study and shows a few of its results, in no order.

Study 1 — technique: universal PBM; form: double-stranded DNA, one strand shown; sample: in vitro; tested at: not given; reading: higher = stronger binding; endpoint: E-score
Target: Sal-like protein 4, full length isoform B (SALL4, Homo sapiens, UniProt Q9UJQ4-2, residues 1-616)
Notes: 8-mer, flanks averaged, mean of replicates
Residues (chain): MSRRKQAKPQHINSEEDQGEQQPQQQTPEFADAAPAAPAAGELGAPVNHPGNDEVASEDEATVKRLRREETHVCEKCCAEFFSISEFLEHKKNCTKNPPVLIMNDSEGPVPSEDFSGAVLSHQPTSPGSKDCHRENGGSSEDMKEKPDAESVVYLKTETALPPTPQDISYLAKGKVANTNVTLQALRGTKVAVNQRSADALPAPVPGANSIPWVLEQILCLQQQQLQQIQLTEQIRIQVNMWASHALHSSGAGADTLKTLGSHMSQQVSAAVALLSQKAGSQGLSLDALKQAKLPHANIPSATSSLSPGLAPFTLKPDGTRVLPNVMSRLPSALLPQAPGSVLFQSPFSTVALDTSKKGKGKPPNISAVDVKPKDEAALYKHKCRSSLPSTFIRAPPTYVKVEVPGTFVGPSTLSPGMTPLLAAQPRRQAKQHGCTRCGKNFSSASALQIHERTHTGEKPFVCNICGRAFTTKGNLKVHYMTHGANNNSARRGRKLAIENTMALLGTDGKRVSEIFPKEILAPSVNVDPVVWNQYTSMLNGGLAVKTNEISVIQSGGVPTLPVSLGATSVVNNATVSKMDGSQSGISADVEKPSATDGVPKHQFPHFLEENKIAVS
Strand = GGCGATCA; value = -0.154
Strand = GTGACCTA; value = -0.0964
Strand = GGCCTGAA; value = -0.226
Strand = CGGTGCAC; value = -0.319
Strand = AACGCTCG; value = -0.131
Strand = GAATGCCC; value = -0.22
Strand = TACAGGGA; value = -0.0682
Strand = GCTGGCCA; value = -0.263
Strand = GAAGCCGC; value = -0.169

Study 2 — technique: protein-binding microarray; form: double-stranded DNA, one strand shown; sample: in vitro; tested at: 250 nM; notes: 60-bp whole probe; together with: salmon DNA 0.4 mg/ml; relative to: random background probes; reading: higher = stronger binding; endpoint: log fluorescence
Target: Interferon regulatory factor 5, full length, phosphomimetic (IRF5, Homo sapiens, UniProt Q13568-2, residues 1-514, K96S/S451D/S453D/S456D/S462D)
Strand = GCCTAGCACTTAGGTATCGACTATAGGTTAGTGCTAGTCTTGATTCGCTTGACGCTGCTG; value = 3.39 z-score
Strand = GCCTAGCACTTATGTTTCGACTATCGGTTAGTGCTAGTCTTGATTCGCTTGACGCTGCTG; value = 9.62 z-score
Strand = GCCTAGCACTCAGATTTCAATTAGAAACTGTGCTAGGTCTTGATTCGCTTGACGCTGCTG; value = 1.24 z-score
Strand = GCCTAGCACTTAGGTTTCGACGTTCGGTTAGTGCTAGTCTTGATTCGCTTGACGCTGCTG; value = 6.15 z-score

Study 3 — technique: protein binding microarray; form: double-stranded DNA, one strand shown; sample: in vitro; tested at: not given; relative to: not given; reading: higher = stronger binding; endpoint: E-score
Target: Histone acetyltransferase KAT6A, winged helix 2, GST fusion (KAT6A, Homo sapiens, UniProt Q92794, residues 85-181)
Notes: 8-mer, flanks averaged, mean of 2 arrays, mostly near background
Construct (chain): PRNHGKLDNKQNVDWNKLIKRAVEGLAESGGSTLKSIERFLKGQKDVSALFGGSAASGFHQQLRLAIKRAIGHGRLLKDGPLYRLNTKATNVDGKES
Strand = CACTTAAG; value = 0.0652
Strand = GATGGACA; value = -0.0603
Strand = CAAAGTCG; value = 0.0685
Strand = AGCACCCA; value = 0.0358
Strand = ACTCCGGC; value = 0.181
Strand = CTATGTCC; value = -0.128
Strand = ATGCGCGC; value = 0.0624
Strand = CCTTAGAC; value = -0.152

Further values, each from its own experiment
Substance = PhoQ, residues 284 288 289 292 302 303 ALASRC; target = PhoP, residues 12 14 15 18 19 NFCKL (Escherichia coli, UniProt P23836); test = Sort-seq, item: YFP reporter; system = E. coli; conditions = PhoQ-PhoP variant library, together with: 10 µM Mg2+; how to read = relative to: high Mg2+ state, higher = stronger signaling; endpoint = fold induction; value = 1.07

Some of these lines once more (study 3):
Strand = GATGGACA; value = -0.0603
Strand = CAAAGTCG; value = 0.0685
